Measured values collected from several papers.
Lines come from different studies, so protocols differ. Values joined by “and” are separate records of one study, mostly repeats; a detail may differ. ± gives the spread as reported. Values after ≈ are worked out from the molar mass of the structure shown.

| Compound | assay | system | conditions | how to read | measurement | value |
| --- | --- | --- | --- | --- | --- | --- |
| O=c1ccc2ncc(=O)n3c2n1C[C@H]3CN1CCC(NCc2cc3c(cn2)OCCC3)CC1 | – | healthy human volunteers | oral, 1500 mg, rifampicin cohort, together with: rifampicin 600 mg | – | incidence of AST increased | 0% |
| COc1cccc2c1CCCC2CCCN1CCN(C2CCCCC2)CC1 (stereo not shown) | – | CD-1 mouse, male, plasma | intraperitoneal, 10 mg/kg | – | AUC(0-inf) | 495 ng·h/mL |
| C[C@@H]1OC(=O)NN=C1c1ccc(-c2ccc(F)cc2)c(C(F)(F)F)c1 | phase I trial, item: Diarrhoea worst grade 1 | human patients | 10 mg loading then 0.5 mg daily | – | patients with adverse event | 100% |
| COc1ccc(-c2c(-c3ccc(C#N)c(F)c3)nc(N3CCC(N)CC3)n(C)c2=O)cc1F | item: Neutropenia | relapsed/refractory marginal zone lymphoma patients | oral, 60 mg, any grade, dose expansion | – | treatment-related adverse event incidence | 33% |
| O=C(Nc1ccccc1)C1CCN(C(=O)Oc2cccnc2)CC1 | item: metabolism and nutrition disorders | healthy women | oral, 60 mg, 7 days | – | subjects with adverse event | 7.1% |
| CN(C(=O)n1cnc(-c2ccc[n+]([O-])c2)c1)C1CCCCC1 | – | Wistar rat, cerebral cortex | oral, 10 mg/kg/day, 24 h, repeated 5 days | – | concentration | 8.1 ± 0.3 ng/g |
| O=C(CCCN1CCC(O)(c2ccc(Cl)cc2)CC1)c1ccc(Br)cc1 | haemolysis | sheep erythrocytes | 1 h, pH 7.5 | – | HC50 | > 128 µg/mL |
| CC(C)Nc1ccnc(Nc2cccc(-c3cccnc3)c2)n1 | item: Calcium | mouse, blood | intraperitoneal, 3 mg/kg | – | blood chemistry | 10.1 mg/dL |
| CC(C)[C@@H]1NC(=O)CNC(=O)[C@H](CC(N)=O)NC(=O)[C@H](CCCNC(=N)N)NC(=O)[C@H](Cc2ccc(O)cc2)NC(=O)[C@H](C(C)C)NC(=O)[C@@H](NC(=O)[C@@H](NC(=O)[C@H](CC(N)=O)NC(=O)[C@H](Cc2c[nH]c3ccccc23)NC(=O)[C@H](C)NC(=O)[C@H](Cc2ccccc2)NC(=O)CN)C(C)C)CSSC[C@@H](C(=O)N[C@@H](Cc2cnc[nH]2)C(=O)N[C@@H](CCCNC(=N)N)C(=O)N[C@@H](CCCNC(=N)N)C(=O)N[C@@H](C)C(=O)N[C@@H](CC(N)=O)C(N)=O)NC(=O)[C@H](C(C)C)NC(=O)[C@H](CCCNC(=N)N)NC1=O | – | ICR mice, blood | intraperitoneal, 10 mg/kg, day 5 | – | neutrophils | 18.1 ± 0.94% |
| COc1cc(Nc2ncc(F)c(Nc3ccc4c(n3)NC(=O)C(C)(C)O4)n2)cc(OC)c1OC | – | kinase assay buffer | 24 h, 0.3% DMSO | – | solubility | 57.1 µM (≈ 26.9 µg/mL) |
| CC[C@H](C)[C@H](NC(=O)[C@H](C)NC(=O)[C@H](CCCCN)NC(=O)[C@H](CC(C)C)NC(=O)[C@H](C)NC(=O)[C@@H](NC(=O)[C@H](Cc1c[nH]cn1)NC(=O)[C@H](CC(C)C)NC(=O)[C@@H](NC(=O)[C@@H](NC(=O)[C@H](CCCCN)NC(=O)[C@H](C)NC(=O)[C@H](C)NC(=O)[C@H](CO)NC(=O)[C@H](CCCCN)NC(=O)[C@H](Cc1ccccc1)NC(=O)[C@@H](NC(=O)[C@H](CCCCN)NC(=O)[C@H](CC(C)C)NC(=O)[C@H](Cc1ccccc1)NC(=O)[C@H](CO)NC(=O)[C@H](CCCCN)NC(=O)[C@H](Cc1c[nH]c2ccccc12)NC(=O)[C@H](CCCCN)NC(C)=O)[C@@H](C)O)[C@@H](C)O)C(C)C)[C@@H](C)O)C(=O)N[C@@H](CO)C(=O)N[C@@H](CO)C(N)=O | – | BALB/c mice, plasma | intraperitoneal, 0.1 mg per animal | – | AUC(0-t) | 582 ng·h/mL |
| O=S(=O)(Nc1ccccc1)c1ccc(NC(=S)Nc2ccccc2)cc1 | – | mouse, female, blood | oral, 80 mg/kg daily, 14 days | – | mean corpuscular haemoglobin concentration | 32.5 g/dL |
| C=CC(=O)N1CC[C@H](n2nc(C#Cc3cc(OC)cc(OC)c3)c3c(N)ncnc32)C1 | – | human patients | oral, dose not given, QD regimen, adverse drug reaction, together with: ferric citrate hydrate | – | AST increased, any grade | 100% |
| C=CCNc1c(O)cc2c(O)c1C[C@@H](C)C[C@H](OC)[C@H](O)[C@@H](C)/C=C(\C)[C@H](OC(N)=O)[C@@H](OC)/C=C\C=C(/C)C(=O)N2 | – | unresectable or metastatic STS, GIST, other | intravenous, 150 mg/m^2 | – | patients with back pain TEAE | 67% |
| CC(C)C[C@H](NC(=O)[C@H](CCCCN)NC(=O)OCC1c2ccccc2-c2ccccc21)C(=O)N[C@H](C(=O)N[C@@H](Cc1ccccc1)C(=O)N[C@@H](Cc1ccccc1)C(=O)N[C@@H](CCCCN)C(=O)NCC(=O)N[C@@H](Cc1ccccc1)C(=O)N[C@@H](C)C(=O)N[C@@H](Cc1c[nH]c2ccccc12)C(=O)N[C@@H](CC(N)=O)C(=O)N[C@H](C(=O)N[C@H]1CSSC[C@@H](C(=O)N[C@@H](Cc2c[nH]cn2)C(=O)N[C@@H](CCCNC(=N)N)C(=O)N[C@@H](CCCNC(=N)N)C(=O)N[C@@H](C)C(=O)N[C@@H](CC(N)=O)C(N)=O)NC(=O)[C@H](C(C)C)NC(=O)[C@H](CCCNC(=N)N)NC(=O)[C@H](C(C)C)NC(=O)CNC(=O)[C@H](CC(N)=O)NC(=O)[C@H](CCCNC(=N)N)NC(=O)[C@H](Cc2ccc(O)cc2)NC(=O)[C@H](C(C)C)NC1=O)C(C)C)C(C)C | HPLC | mouse mammary gland homogenate | 2560 µM, 20.00 h, 37 °C, 50 mg/mL tissue | – | remaining peptide | 53.9% and 56.8% and 52% |
| CC(=O)c1c(C)c2cnc(Nc3ccc(C4CCN(CCS(C)(=O)=O)CC4)cn3)nc2n(C2CCCC2)c1=O | – | HR+/HER2- advanced breast cancer patients | oral, 300 mg | – | patients with TRAE grade ≥3 | 75% |
| Cc1ccc(F)c2cc(C(=O)N[C@@H]3CCC[C@H](N4CC[C@H](N(C)S(C)(=O)=O)C4)C3)[nH]c12 | – | CD1 mouse | oral, 30 mg/kg | – | CL/F | 197 mL/min/kg |
| O=[N+]([O-])c1ccc2c(c1)S(=O)(=O)C=C2 | – | male C57BL/6 mice, blood | intraperitoneal, 20 mg/kg, day 8, group average | – | plateletcrit | 5.44 mL/L |
| COc1cc(C(=O)NC2CCN(C)CC2)c(F)cc1Nc1ncc(C(F)(F)F)c(Oc2cccc3c2C(=O)N(C)C3)n1 | – | human patients, urine | oral, 300 mg single dose, geometric mean | reference: dose | fraction excreted in urine (0-48 h) | 8.61% |

| Compound | assay | system | conditions | how to read | measurement | value |
| --- | --- | --- | --- | --- | --- | --- |
| CCC[C@@](N)(CO)CCc1ccc(OCCCCCC(C)C)cc1 | – | dog, male hounds, plasma | oral capsule, 5 mg/kg, median | – | half-life | 13.6 h |
| O=C(O)CCC(CP(=O)(O)O)C(=O)O (stereo not shown) | – | rat plasma | 4 µg/mL, freeze-thaw cycle 2 at -80 °C | – | measured concentration | 3.99 ± 0.05 µg/mL |
| C[C@@H](O)[C@@H]1NC(=O)[C@H](CCCCN)NC(=O)[C@@H](Cc2c[nH]c3ccccc23)NC(=O)[C@H](Cc2ccccc2)NC(=O)[C@@H](NC(=O)[C@H](N)Cc2ccccc2)CSSC[C@@H](C(=O)N[C@H](CO)[C@@H](C)O)NC1=O | population PK model | human, typical 75 kg | weight exponent 0.75 fixed | – | inter-compartmental clearance | 3.59 L/h |
| CC(C)(c1ccccc1)c1cc(-n2nc3ccccc3n2)c(O)c(C(C)(C)c2ccccc2)c1 | exposure assessment | human, age 16-21 years | cream | – | mean daily dermal uptake | 0.77 ng/kg body weight/day |
| N=C(CC(O)c1cc2c(F)cc(F)cc2c2cc(C(F)(F)F)ccc12)Nc1ccc(F)c(F)c1 (stereo not shown) | – | human | 30 min | – | blood-to-plasma ratio | 1.04 ± 0.09 |
| CCN1[C@@H](C(=O)NC23CCC(C(=O)O)(CC2)CC3)[C@H](c2cccc(Cl)c2F)[C@]2(C(=O)Nc3cc(Cl)ccc32)C12CCCCC2 | – | patients with advanced solid tumours | oral, dose not given, all doses | – | grade ≥3 Lymphocytopenia incidence | 33.3% |
| COc1cccc(Oc2ccccc2NC(=O)CNC(=O)c2cccc3ccccc23)c1 | – | esterase-deficient SCID mice, male | oral, 100 mg/kg/day, 14 days, toxicity study | – | serum sodium | 162 mmol/L and 164 mmol/L and 165 mmol/L |
| C[C@]1(CO)Cc2ncn(-c3ccc(C#N)c(Cl)c3)c2C(=O)O1 | – | human | all doses, European single ascending dose | – | drug-related involuntary muscle contractions | 2.1% |
| O=C(O)CCCOc1ccc(F)cc1-c1cc(-c2ccccc2C(F)(F)F)n(-c2ccccc2)n1 | – | male Crl:CD(SD) rats, thymus | intravenous, 25 µg/kg, 14 d | – | relative organ weight | 0.11 ± 0.02 g% |
| COc1ncccc1-c1cnn2ccc(N3CCN(C(=O)OC(C)C)CC3)nc12 | – | rat, CCI mechanical hyperalgesia model, plasma | oral, 3 mg/kg, 210 min | – | drug concentration | 400 nM |
| C[C@@H](NC(=O)N1C(=O)[C@H](Cc2ccnc(N)c2)[C@H]1C(=O)O)C1CCCCC1 | – | healthy adult Chinese volunteers | continuous intravenous infusion, 2.25 mg/kg/h, 5-day infusion, CTCAE 5.0 grading | – | incidence of decreased hemoglobin | 0% |
| CO[C@H]1C[C@@H]2CC[C@@H](C)[C@@](O)(O2)C(=O)C(=O)N2CCCC[C@H]2C(=O)O[C@H]([C@H](C)C[C@@H]2CC[C@@H](OC(=O)NCCOCCOCCOCCOCCOCCOCCOCCOCCC(=O)N3CCc4cc(Cn5nc(-c6ccc7oc(N)nc7c6)c6c(N)ncnc65)ccc4C3)[C@H](OC)C2)C[C@@H](O)[C@H](C)/C=C(\C)[C@@H](O)[C@@H](OC)C(=O)[C@H](C)C[C@H](C)/C=C/C=C/C=C/1C | phase 1 dose escalation, item: headache | advanced solid tumour patients | intravenous, 8 mg weekly, any grade | – | TRAE incidence | 18.8% |
| NC(=O)[C@H]1CCN(c2ncnc(N)c2F)C[C@@H]1N1CCC[C@@H](Nc2cc(Cl)cc(C(F)(F)F)c2)C1=O | – | B-cell malignancy patients | oral, 82 mg twice daily, dose | – | grade ≥3 leukocytosis | 0% |
| Cc1c(COC(=O)[C@@H]2[C@H](/C=C(\Cl)C(F)(F)F)C2(C)C)cccc1-c1ccccc1 (racemic) | item: CYP2C8 | human, age 6 months, recombinant human CYP2C8 | 0.1 µM | – | enzyme contribution to clearance | 9.07% |
| O=C1Nc2cc3[nH]nc(-c4ccncc4)c3cc2CN1Cc1ccccc1 | CTCAE v4.03 | human, relapsed or refractory advanced solid tumours | intravenous, 7.2 mg/kg, pooled schedules | – | patients with QTc prolongation | 0% |
| COc1cc2c(Oc3ccc4[nH]c(C)cc4c3F)ccnc2cc1OCC1(N)CC1 | – | paediatric recurrent refractory sarcoma | 10 mg | – | grade 1 or 2 Hypertension | 25% |
| Cc1cccc(Cn2nc(C3CC3)c3c(NC(=O)c4cnc5cc(OCCN6CCN(C)CC6)ccn45)cccc32)n1 | item: Amylase increased | human advanced solid tumours | oral, 400 mg, all-causality | – | adverse events incidence | 14.3% |
| CN1CC[C@@H](c2c(O)cc(O)c3c(=O)cc(-c4ccc(C(F)(F)F)cc4Cl)oc23)[C@@H]1CO | item: Nausea | relapsed or refractory haematological malignancies | oral, dose not given, all arms | – | patients with adverse event | 25% |

Repeated from above:
| Compound | assay | system | conditions | how to read | measurement | value |
| --- | --- | --- | --- | --- | --- | --- |
| O=C(O)CCC(CP(=O)(O)O)C(=O)O (stereo not shown) | – | rat plasma | 4 µg/mL, freeze-thaw cycle 2 at -80 °C | – | measured concentration | 3.99 ± 0.05 µg/mL |
| O=[N+]([O-])c1ccc2c(c1)S(=O)(=O)C=C2 | – | male C57BL/6 mice, blood | intraperitoneal, 20 mg/kg, day 8, group average | – | plateletcrit | 5.44 mL/L |
